Results gathered from unrelated publications.
Several values in a cell are separate wells, animals, samples, runs or records. ± gives the spread as reported. In brackets after ≈: the same amount, converted by molar mass.
Chain of UniProt Q15759 (whole entry, looked up): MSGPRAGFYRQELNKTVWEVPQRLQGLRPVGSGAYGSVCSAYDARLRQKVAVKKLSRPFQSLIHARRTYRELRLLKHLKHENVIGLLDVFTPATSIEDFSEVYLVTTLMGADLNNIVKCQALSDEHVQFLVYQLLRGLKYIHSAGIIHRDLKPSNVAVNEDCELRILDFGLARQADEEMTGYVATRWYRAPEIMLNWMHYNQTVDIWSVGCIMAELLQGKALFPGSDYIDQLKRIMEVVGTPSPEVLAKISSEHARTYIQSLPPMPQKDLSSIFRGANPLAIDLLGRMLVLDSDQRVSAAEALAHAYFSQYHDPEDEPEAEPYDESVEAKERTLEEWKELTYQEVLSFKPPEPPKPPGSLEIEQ

CN1CCN(S(=O)(=O)c2cc([N+](=O)[O-])ccc2N(CCOS(C)(=O)=O)CCOS(C)(=O)=O)CC1 — EFS ratio (T/C) (NSG mice, sample CE PDX; intraperitoneal, 25 mg/kg weekly x3; reference: treated over vehicle): > 3.2
C[C@@H](NC(=O)c1ccc(C#Cc2cccc(F)c2)cn1)C(C)(C)O — population spike amplitude (rat hippocampal CA3 slices; 10 µM, 10 min, spontaneous epileptiform activity; reference: baseline): 106 ± 3.7%
O=c1cc(-c2ccc(O)cc2)oc2c([C@@H]3OC[C@H](O)[C@H](O)[C@H]3O)c(O)c([C@@H]3O[C@H](CO)[C@@H](O)[C@H](O)[C@H]3O)c(O)c12 — CaMKII-δ activity (measured: phosphorylation; mice, cardiac CaMKII-δ overexpression (AAV9); dose not given): inhibited
C[C@H]1CN(c2n[nH]c3nc(N[C@H]4CC[C@H](NS(=O)(=O)CCC(F)(F)F)CC4)ncc23)CCO1 — relative abundance (MAPK11 (Homo sapiens, UniProt Q15759); competitor, Kinobeads competition; HEK293, K562, placenta extract; 4 µM; reference: vehicle): 0.3
CCOCc1nc(O)c(-c2nnc(Cc3ccc(Cl)cn3)o2)c(O)c1-c1c(OC)cccc1OC — cardiac output change (renal hypertensive rat; sc infusion, 0.192 mg/kg/day, repeat dosing; reference: vehicle): 38%
Clc1cc2c(cc1Cl)Oc1cc(Cl)c(Cl)cc1O2 — mRNA fold change (RNA-Seq, measured: Ptger2; Sprague-Dawley rat, female, liver; 10 µg/kg; reference: vehicle): 1.2 fold
CCc1cccc(N(C)C(=N)Nc2cccc3ccccc23)c1 — IC50 (Plasmodium falciparum; HB3): 10 µM
N=C(N)NCCC[C@H](NC(=O)CCCCCNC(=O)[C@H](CCCNC(=N)N)NC(=O)[C@H](CCCNC(=N)N)NC(=O)CCCCCNC(=O)[C@H](CCCNC(=N)N)NC(=O)[C@H](CCCNC(=N)N)NC(=O)CCCCCNC(=O)[C@H](CCCNC(=N)N)NC(=O)[C@H](CCCNC(=N)N)NC(=O)CCCCCNC(=O)[C@@H](N)CCCNC(=N)N)C(=O)NCCCCCC(=O)NCCC(=O)O — MIC (broth microdilution; ATCC 43300 resistant strain, Mueller-Hinton broth): 24 µM (≈ 45.7 µg/mL)
CC[C@H](C)[C@@H]1NC(=O)[C@H](Cc2ccc(O)cc2)NC(=O)[C@H](CC(=O)O)NC(=O)CCc2cccc3c2Oc2c(cccc2-3)CCNC(=O)[C@H](CC(=O)O)NC(=O)[C@H](CC(=O)O)NC(=O)[C@H](CCCCN)NC1=O — arthritis score (DBA/1 mice, collagen-induced arthritis; intravenous, 0.5 mg/kg, 5 doses every other day, 22 days; reference: untreated control): decreased
CC[C@H](C)[C@@H]1NC(=O)[C@@H]2CCCN2C(=O)[C@H](CC(C)C)NC(=O)[C@H](CC(C)C)NC(=O)CNC(=O)[C@@H](NC(=O)[C@@H](NC(=O)[C@H](CC(=O)O)NC(=O)CNC(=O)[C@@H](NC(=O)[C@H](C)NC(=O)CNC(=O)[C@H](CCCCN)NC(=O)[C@H](CC(C)C)NC(=O)[C@H](CC(C)C)NC(=O)[C@H](CCCCN)NC(=O)CNC(=O)[C@@H](NC(=O)[C@@H](N)CC(C)C)C(C)C)C(C)C)C(C)C)CSSC[C@@H](C(=O)O)NC1=O — log2 fold change (RNA-seq, measured: Atp8b4; mouse, traumatic brain injury model, frontal cortex and hippocampus; dose not given; reference: TBI alone): -3.08
Cc1ccc2cc(N3CCC4(O)C(=O)c5cc(C)c(C)cc5N=C34)ccc2n1 (centres unmarked) — lowest effective dose (methamphetamine place preference; mouse; intraperitoneal): 0.5 mg/kg
C=CC(=O)Nc1cc(Nc2ncc(Cl)c(Nc3ccccc3C(=O)C(=O)N(C)C)n2)c(OC)cc1N1CCN(C)CC1 — patients with progressive disease (RECIST v1.1 best response; human EGFR T790M NSCLC; oral, 200 mg/day, per-protocol set): 50%
CCCCC1(CCCC)CN(c2ccccc2)c2cc(SC)c(OCC(=O)N[C@@H](C(=O)NCC(=O)O)c3ccccc3)cc2S(=O)(=O)C1 — serum LDL cholesterol (human; 5 mg once daily, 120 h): 109 mg/dL
NC(=O)c1ncn([C@@H]2O[C@H](CO)[C@@H](O)[C@H]2O)c1N — log2 fold change (binding, MIDAS equilibrium dialysis LC-MS; A2AR-BRIL thermostabilized; concentration not given; reference: no-protein control): -0.139
Oc1cc(Br)cc(Br)c1Oc1ccc(Br)cc1Br — Vmax/Km (sulfonation; human liver cytosol): 41.2 ± 15.5 µL/min/mg
O=c1c(O)c(-c2ccc(O[C@@H]3O[C@H](CO)[C@@H](O)[C@H](O)[C@H]3O)c(O)c2)oc2cc(O)cc(O)c12 — ABTS radical scavenging: 1.21 trolox equivalents
Cc1nc(Nc2ccc(CC(=O)O)cc2)nc(Nc2ccc(F)c(C(F)(F)F)c2)c1C — fibrosis (C57BL/6J mouse, high-fat diet MASH model, white adipose tissue; intraperitoneal, 0.3 mg/kg daily, 60% fat diet for 12 weeks, dosed final four weeks; reference: untreated): decreased
C[C@H]1O[C@@H](O[C@H]2CC[C@@]3(C)[C@@H](CC[C@]4(C)[C@@H]3C=C[C@]35OC[C@@]6(CCC(C)(C)C[C@H]63)[C@@H](O)C[C@]54C)[C@]2(C)CO)[C@H](O)[C@@H](O[C@@H]2O[C@H](CO)[C@@H](O)[C@H](O)[C@H]2O)[C@H]1O — body weight change (mouse, ethanol-fed, hepatic SIRT1 knockdown; dose not given, high dose, during treatment): -0.7 g and -0.2 g and -0.9 g and -0.5 g and 0 g and -1.4 g
C[C@]1(CO)Cc2ncn(-c3ccc(C#N)c(Cl)c3)c2C(=O)O1 — urinary excretion (aldosterone synthesis, inhibitor, measured: cortisol; healthy Japanese adults, urine; 80 mg, 0-24 h at steady state, multiple rising dose): 74.7 mmol
CSCC[C@@H]1NC(=O)[C@H](Cc2c[nH]c3ccccc23)NC(=O)[C@@H](NC(=O)CCNC(=O)[C@H](CCC(N)=O)NC(=O)[C@@H]2CCCN2C(=O)[C@@H]2CCCN2C(=O)[C@H](CCCNC(=N)N)NC(=O)[C@H](CCCNC(=N)N)NC(=O)[C@H](CCCNC(=N)N)NC(=O)[C@H](CCC(N)=O)NC(=O)[C@H](CCCNC(=N)N)NC(=O)[C@H](CCCNC(=N)N)NC(=O)[C@H](CCCCN)NC(=O)[C@H](CCCCN)NC(=O)[C@H](CCCNC(=N)N)NC(=O)CN)CSSC[C@@H](C(=O)O)NC(=O)[C@H]([C@@H](C)O)NC(=O)CNC(=O)[C@H](CC(C)C)NC(=O)[C@H](Cc2c[nH]cn2)NC(=O)[C@H](CCCNC(=N)N)NC(=O)[C@@H]2CCCN2C(=O)[C@H](CO)NC1=O — CK2α staining (immunohistochemistry, measured: CSNK2A1; NCI-H226 xenograft mouse, tumour tissue; intravenous, 10 mg/kg, day 16): 0.06 ± 0.014 IOD/area
C=CCNc1c(O)cc2c(O)c1C[C@@H](C)C[C@H](OC)[C@H](O)[C@@H](C)/C=C(\C)[C@H](OC(N)=O)[C@@H](OC)/C=C\C=C(/C)C(=O)N2 — median progression-free survival (patients with STS, GIST or other tumours; dose not given): 9.1 weeks
Nc1ccccc1C(=O)[O-].[Na+] — log2 fold change (binding, MIDAS equilibrium dialysis LC-MS; A2AR-BRIL thermostabilized; concentration not given; reference: no-protein control): -0.199
CC1Cc2cc3c(cc2C(c2ccc(N)cc2)=NN1)OCO3 (centres unmarked) — IC50 (Plasmodium falciparum; W2): 5.01 µM

Some of these lines once more:
C[C@@H](NC(=O)c1ccc(C#Cc2cccc(F)c2)cn1)C(C)(C)O — population spike amplitude (rat hippocampal CA3 slices; 10 µM, 10 min, spontaneous epileptiform activity; reference: baseline): 106 ± 3.7%
NC(=O)c1ncn([C@@H]2O[C@H](CO)[C@@H](O)[C@H]2O)c1N — log2 fold change (binding, MIDAS equilibrium dialysis LC-MS; A2AR-BRIL thermostabilized; concentration not given; reference: no-protein control): -0.139
